Published values gathered from unrelated publications.
Each numbered part is a random draw from the data of one study; scales do not carry over between parts. Positions count from the first letter of the parent shown.
Chain of UniProt P15170 (whole entry, looked up): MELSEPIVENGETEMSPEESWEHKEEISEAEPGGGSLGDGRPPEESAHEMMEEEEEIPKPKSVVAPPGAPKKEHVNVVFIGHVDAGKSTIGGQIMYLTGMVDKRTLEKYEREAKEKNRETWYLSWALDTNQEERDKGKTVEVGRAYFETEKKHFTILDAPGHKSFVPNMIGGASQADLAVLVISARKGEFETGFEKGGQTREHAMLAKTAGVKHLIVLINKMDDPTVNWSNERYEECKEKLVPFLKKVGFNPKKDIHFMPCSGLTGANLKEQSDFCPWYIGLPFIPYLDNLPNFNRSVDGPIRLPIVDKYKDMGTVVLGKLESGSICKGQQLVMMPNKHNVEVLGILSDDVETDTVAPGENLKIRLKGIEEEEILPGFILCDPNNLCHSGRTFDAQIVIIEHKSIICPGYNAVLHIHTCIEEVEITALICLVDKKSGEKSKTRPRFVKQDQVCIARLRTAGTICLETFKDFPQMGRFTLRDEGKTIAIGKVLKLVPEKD
Chain of UniProt P20309 (whole entry, looked up): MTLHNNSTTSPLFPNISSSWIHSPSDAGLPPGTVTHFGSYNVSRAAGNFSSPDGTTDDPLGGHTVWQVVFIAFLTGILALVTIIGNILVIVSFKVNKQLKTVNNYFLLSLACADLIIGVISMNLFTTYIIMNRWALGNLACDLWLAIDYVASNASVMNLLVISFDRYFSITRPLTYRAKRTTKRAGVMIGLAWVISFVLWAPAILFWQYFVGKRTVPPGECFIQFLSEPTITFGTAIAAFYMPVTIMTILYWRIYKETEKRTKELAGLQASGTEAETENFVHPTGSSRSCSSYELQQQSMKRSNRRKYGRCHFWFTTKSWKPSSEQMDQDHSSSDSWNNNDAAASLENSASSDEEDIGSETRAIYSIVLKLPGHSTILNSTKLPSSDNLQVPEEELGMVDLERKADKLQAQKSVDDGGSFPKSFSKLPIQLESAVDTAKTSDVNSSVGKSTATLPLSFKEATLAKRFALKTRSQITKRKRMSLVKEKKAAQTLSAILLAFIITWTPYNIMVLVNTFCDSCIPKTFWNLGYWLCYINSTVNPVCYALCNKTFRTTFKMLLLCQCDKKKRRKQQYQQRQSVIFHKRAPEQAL

Series 1
Target: tungstate, free oxyanion
Method: microfluidic competitive inhibition
Matrix: in vitro, cell-free expressed
Concentration: not given
Notes: derived from inhibition constants, unchanged parent 2230 nM
Direction: lower = stronger binding
Starting sequence: PafA, mature enzyme, eGFP fusion (Elizabethkingia meningoseptica, UniProt Q9KJX5); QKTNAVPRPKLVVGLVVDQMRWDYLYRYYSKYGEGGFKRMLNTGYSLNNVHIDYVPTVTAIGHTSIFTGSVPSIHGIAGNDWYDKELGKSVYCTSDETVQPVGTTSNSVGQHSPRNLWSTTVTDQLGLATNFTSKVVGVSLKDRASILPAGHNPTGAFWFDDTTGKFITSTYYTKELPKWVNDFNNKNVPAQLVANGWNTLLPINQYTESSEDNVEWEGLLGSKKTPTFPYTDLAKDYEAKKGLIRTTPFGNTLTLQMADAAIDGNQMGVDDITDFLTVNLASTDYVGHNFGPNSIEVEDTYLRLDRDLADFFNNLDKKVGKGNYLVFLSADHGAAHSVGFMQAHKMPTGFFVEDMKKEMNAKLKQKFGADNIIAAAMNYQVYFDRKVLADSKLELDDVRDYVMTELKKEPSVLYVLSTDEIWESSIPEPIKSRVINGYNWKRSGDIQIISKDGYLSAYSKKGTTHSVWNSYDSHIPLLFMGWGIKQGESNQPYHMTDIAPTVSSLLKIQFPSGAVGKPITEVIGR
Substitution | oxyanion analog dissociation constant
K187V | 2.44 µM
D124V | 1.25 µM
T133G | 1.97 µM
A310V | 2.09 µM
Y472G | 1.04 µM
A377G | 1.61 µM
V16G | 1.17 µM
K508G | 1.07 µM

Series 2
Target: CCNE2, cyclin fold, Cln2 fusion (human)
Method: yeast growth competition, sequencing
Matrix: yeast
Notes: weak parent motif
Baseline: not given
Direction: higher = stronger binding
Starting sequence: viral docking peptide; PGASRRLFGSSAD; partner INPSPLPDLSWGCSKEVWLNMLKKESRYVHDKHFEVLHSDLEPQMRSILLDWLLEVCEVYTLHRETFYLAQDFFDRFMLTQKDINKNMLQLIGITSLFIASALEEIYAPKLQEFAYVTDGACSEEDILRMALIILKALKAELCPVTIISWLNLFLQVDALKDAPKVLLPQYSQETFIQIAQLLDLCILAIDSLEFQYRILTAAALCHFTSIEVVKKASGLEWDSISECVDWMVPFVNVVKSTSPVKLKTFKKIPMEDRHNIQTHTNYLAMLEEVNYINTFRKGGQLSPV
Substitution | normalised enrichment score
PGASARLFGSSAD [R5A] | 0.597
PGASRRAFGSSAD [L7A] | 0.139
PGASRRLFGSSAA [D13A] | 0.859
PAASRRLFGSSAD [G2A] | 0.539
PGASARAFGSSAD [R5A L7A] | 0.356
PGASRRLAGSSAD [F8A] | 0.0755
PGASKRLFGSSAD [R5K] | 0.0701
PGASRRLFGSAAD [S11A] | 1.11

Other studies, line by line
Compound | target | test | system | conditions | measurement | result
O=C1CCC(N2Cc3c(ccc4c3OCC43CCN(Cc4ccccc4)CC3)C2=O)C(=O)N1 (stereo not drawn) | GSPT1 (Homo sapiens, UniProt P15170) | degrader, HiBiT | HEK293 | 0.1235 µM, 6 h | remaining protein | 107%
CC(=O)C1=C(C)N(c2cccc(C(F)(F)F)c2)C(=O)N[C@H]1c1ccc(C#N)nc1 | CHRM3 (Homo sapiens, UniProt P20309) | ligand displacement | – | 10 µM | inhibition | 27.3%

Excerpt of the above (series 1):
Substitution | oxyanion analog dissociation constant
A310V | 2.09 µM
